Earlier results as cited in several papers.
Compare with care: the assays were run in different laboratories. ± gives the spread as reported. In brackets after ≈: the same amount, converted by molar mass.

CSc1nc(-c2ccc(F)cc2)c(-c2ccnc(Nc3ccc(N)cc3)c2)[nH]1  IC50 (JNK3; inhibitor): 0.024 µM
O=C(Nc1cccc(OCC2CCCN2)n1)Nc1csc(-c2ccncc2)n1 (stereo not drawn)  IC50 (CDK5; ATP-competitive inhibitor): 0.005 µM
CC(C)(Sc1nc2ncccc2n1Cc1ccc(Br)c2ccccc12)C(=O)O  IC50 (URAT1; inhibitor): 1.36 µM
CNCCCOc1cc(F)c(-c2c(Cl)nc3ncnn3c2NCC(F)(F)F)c(F)c1  total α-tubulin level (HEK293; 1 µM, 4 h, unit not given; baseline: vehicle (DMSO)): 0.69 ± 0.03
CCc1ccc(CCNC(=O)c2c(O)c(O)cc3c(O)c(-c4c(C)cc5c(C(=O)NCCc6ccc(CC)cc6)c(O)c(O)cc5c4O)c(C)cc23)cc1  IC50 (Bcl-2 (human); binding, fluorescence polarization; with: fluorescent BH3 Bid peptide): ~1 µM
CCC[C@@H]1N[C@@H](CO)[C@@H](O)[C@H](O)[C@H]1O  IC50 (Escherichia coli beta-glucuronidase; enzyme activity): 586 µM
CN1C(=O)[C@@H](Cc2ccc(O)cc2)NC(=O)CNC(=O)[C@H](Cc2ccc3ccccc3c2)NC(=O)[C@H](CCCNC(=N)N)NC(=O)[C@H]1CCCNC(=O)c1ccc(CNC(=O)CN2CCN(CC(=O)O)CCN(CC(=O)O)CCN(CC(=O)O)CC2)cc1 [gallium-68 labelled]  absorbed dose coefficient (image-based dosimetry; human patients, red marrow): 0.014 mGy/MBq
CCCC[C@H]1C(=O)N(C)[C@@H](CCCC)C(=O)N[C@@H](CCCNC(=N)N)C(=O)N[C@H](C(=O)NCC(N)=O)CSCC(=O)N[C@@H](Cc2ccccc2)C(=O)N(C)[C@@H](C)C(=O)N[C@@H](CC(N)=O)C(=O)N2CCC[C@H]2C(=O)N[C@@H](Cc2c[nH]cn2)C(=O)N[C@@H](CC(C)C)C(=O)N(C)CC(=O)N[C@@H](Cc2c[nH]c3ccccc23)C(=O)N[C@@H](CO)C(=O)N[C@@H](Cc2c[nH]c3ccccc23)C(=O)N1C  IC50 (PD-L1; literature value): 0.146 µM
N=C(N)NCCC[C@@H]1NC(=O)C[C@H]2NC(=O)[C@H](CNC(=O)[C@H](CC(=O)O)NC(=O)CNC1=O)N(Cc1ccccc1)C2=O  IC50 (integrin αVβ5; binding, competitive binding; with: biotinylated vitronectin): 0.149 ± 0.025 µM
OC1CCCC1n1cc(-c2cnn3ccc(N4CCC[C@@H]4c4cc(F)ccc4F)nc23)cn1 (stereo partly drawn)  IC50 (TRKA wild type; inhibitor): 0.0044 µM
CCC(=O)O[C@@H]1[C@@H](OC(C)=O)C2=C(C(=O)C(O)=C(C(C)C)C2=O)[C@@]2(C)CCCC(C)(C)[C@H]12  GI50 (MCF7; cell growth): 10 to 30 µM
O=C(Nc1ccccc1-c1ccc(Cl)c(Cl)c1)c1nccnc1C(F)(F)F  EC80 (Puccinia triticina; wheat): 0.5 to 2 mg a.i./L
Cc1cc(=O)[nH]c(=O)n1Cc1cn(-c2c3ccccc3nc3ccccc23)nn1  IC50 (DNA topoisomerase IIβ; inhibitor): 0.52 µM
C/C(=N\NC(=O)C1=C(O)c2ccccc2S(=O)(=O)N1Cc1nc2ccccc2[nH]1)c1ccccc1  IC50 (ENPP3; inhibitor): 0.15 µM
CCCCCCCCCc1nc2cc(Cl)ccc2c(=O)n1CCN  IC50 (PqsR, Pseudomonas aeruginosa; inhibitor): 19.3 µM
N/N=C1\CCCc2nc3n[nH]c(O)c3cc21  IC50 (c-Met kinase; inhibitor): 0.00039 µM
C/C=C/CNC(=N)NCCCCCCCCN1CCCCCCCCNC(=N)NC1=O  MIC50 (Candida parapsilosis): 5 µg/mL (≈ 11.5 µM)
N#Cc1cccc(-c2c[nH]c3ncnc(N4CCOCC4)c23)c1  IC50 (LRRK2): 0.025 µM
Cc1onc(-c2ccc(Cl)o2)c1-c1ccccc1  IC50 (COX-1): 1.9 µM
Nc1cc(COc2c(Cl)cc(C[C@H](N)C(=O)O)cc2Cl)c2oc(-c3ccccc3)nc2c1  IC50 (LAT1 human; L-leucine uptake; HT-29; with: [14C]-L-leucine): 0.06 µM
O=C(Nc1ccccc1-c1cccc(Cl)c1)c1nccnc1C(F)(F)F  EC80 (Botrytis cinerea; cucumber): 5 to 20 mg a.i./L
CC(C)C[C@@H](CN[C@@H](Cc1ccc(Cl)cc1)C(N)=O)NC(=O)[C@H](Cc1c[nH]cn1)NC(=O)CNC(=O)[C@@H](NC(=O)[C@H](C)NC(=O)[C@H](Cc1c[nH]c2ccccc12)NC(=O)[C@H](CCC(N)=O)NC(=O)[C@H](N)Cc1ccccc1)C(C)C  IC50 (mouse GRP receptor; binding; literature species comparison): 0.0049 ± 0.0008 µM
COc1ccc2nc3cc(Cl)ccc3c(NCCCCNc3nc(N)nc(N)n3)c2c1  IC50 (MBNL1–CUG repeat RNA complex; complex formation, inhibitor): 43 µM
COc1ccccc1C(=O)Nc1cccc(-c2nc3ncccc3o2)c1  IC50 (Plasmodium falciparum ENT1; [3H]adenosine uptake; PfENT1-expressing yeast): 0.0109 ± 0.0068 µM
CCc1ccc(Cn2cc(-c3cc(-c4ccc(Br)cc4)nc(N)n3)c3ccccc32)cc1  IC50 (EGFR T790M human; inhibitor): 0.094 µM
Cc1c(C(=O)O)ccc2c1NC(c1cccc(C(F)(F)F)c1)[C@H]1CC=C[C@@H]21 (stereo partly drawn)  IC50 (GroEL/GroES; protein refolding): < 10 µM
COCCOCCOCCOCCC(=O)NCc1cc(CNC(=O)CCOCCOCCOCCOC)cc(-c2cc3cc4nc(c(OC)c5[nH]c(cc6nc(cc2[nH]3)CC6(C)C)cc5-c2cc(CNC(=O)CCOCCOCCOCCOC)cc(CNC(=O)CCOCCOCCOCCOC)c2)CC4(C)C)c1  intersystem crossing yield (DMF; room temperature): 0.42
CCCc1scc(-c2cn[nH]c2)c1CC(NC1=NC(C)(C)Cc2cc(Cl)ccc21)C(=O)O (stereo not drawn)  IC50 (BACE1; AlphaScreen): 0.008 µM
O=C(Nc1ccc2nc(NC(=O)c3ccco3)sc2c1)c1ccco1  IC50 (Plasmodium falciparum ENT1; [3H]adenosine uptake; PfENT1-expressing yeast): 0.003 ± 0.0013 µM
C[C@H](N)[C@H]1O[C@@H](O[C@@H]2[C@@H](O)[C@H](N)C[C@H](N)[C@H]2O[C@H]2O[C@H]([C@@H](C)O)[C@@H](O)[C@H](O)[C@H]2N)[C@H](O)[C@@H]1O  IC50 (Escherichia coli ribosome; translation, inhibitor, measured: firefly luciferase; Escherichia coli S30 lysate): 1.1 ± 0.2 µM
CCn1c(SCC(=O)Nc2cccc(C(=O)/C=C/c3ccc(OC)cc3)c2)nc2ccccc2c1=O  IC50 (EGFR; inhibitor): 2.3 µM
COc1ccc(/C=C/C(=O)OCc2cn(-c3ccccc3)nc2-c2ccc(F)cc2)cc1  IC50 (HER2; inhibitor): 6.23 µM
COc1cc(N2CCNCC2)ccc1Nc1cc(N2CCC[C@H](C(=O)NCc3ccc(OC(F)(F)F)cc3)C2)ccn1  IC50 (ROS1 G2032R; cell-based): 0.105 µM
O=C(NO)c1ccc(NC(=O)[C@@H](NC(=O)c2ccc3ccccc3c2)c2ccccc2)cc1  IC50 (HDAC; enzyme activity; HeLa nuclear extract): 0.0143 µM
CC1=CCC23OC2(C)CCC2C(CN(C)C)C(=O)OC2C13.Cl (stereo not drawn)  tumour growth inhibition (CA-755 breast adenocarcinoma model; ip and intratumoural, dose not given): 86 to 90%
COc1cnc(COc2ccc(F)c(F)c2)cc1-c1cc2c([nH]1)CCNC2=O  IC50 (casein kinase 1 gamma isoforms; enzyme activity, inhibitor): < 0.01 µM
CCN(CC)C(=O)CCSc1nnc(COc2ccccc2)o1  IC50 (15-lipoxygenase; inhibitor): 9.43 ± 0.17 µM
CN(C)CCCOc1cc(F)c(-c2c(Cl)nc3ncnn3c2NCC2(C)CC2)c(F)c1  acetylated α-tubulin level (HEK293; 10 µM, 4 h, unit not given; baseline: vehicle (DMSO)): 0.49 ± 0.03
C/C=C/C#CC#C[C@@H](O)[C@@H](/C=C/CCCO)O[C@@H]1O[C@H](CO)[C@@H](O)[C@H](O)[C@H]1O  IC50 (P2Y14 receptor; antagonist): 5.8 µM
Cc1ccc(C(=O)[C@]23C(=O)OC(=O)[C@@]2(C)N(C)[C@@]2(c4ccccc4)Sc4ccccc4[C@@H]32)cc1  IC50 (Leishmania mexicana cysteine protease; inhibitor): 3.7 µM
O=C(NS(=O)(=O)c1ccc(Br)cc1)c1cccc(C(=O)NS(=O)(=O)c2ccc(Br)cc2)n1  IC50 (COX-2; enzyme activity, inhibitor): 5.6 µM
NS(=O)(=O)Oc1ccc2c3c(c(=O)oc2c1)CCCCCC3  IC50 (steroid sulfatase; placental microsomes): 0.03 µM
Cc1cc(CN2CCN(c3c(Br)cnc4[nH]c(-c5ccc(N6CCN(C)CC6)cc5)nc34)CC2)no1  IC50 (Aurora C kinase; inhibitor): 0.019 µM
O=C(c1ccc(Br)cc1)[C@H]1[C@H](c2cn(-c3ccccc3)nc2-c2ccccc2)C2CC3CCCCC3N2[C@]12C(=O)Nc1ccc(Cl)cc12 (stereo partly drawn)  IC50 (CDK2; enzyme activity, inhibitor): 0.035 µM
CC[C@H](C)[C@H](NC(C)=O)C(=O)N[C@H]1CSSC[C@@H](C(=O)N[C@H](C(N)=O)[C@@H](C)O)NC(=O)[C@H](CCCNC(=N)N)NC(=O)[C@H](Cc2c[nH]cn2)NC(=O)[C@H](C)NC(=O)CNC(=O)[C@H](Cc2c[nH]c3ccccc23)NC(=O)[C@H](CC(=O)O)NC(=O)[C@H](CCC(N)=O)NC(=O)[C@H](Cc2ccc3ccccc3c2)NC(=O)[C@H](C(C)C)NC1=O  IC50 (complement classical pathway; ELISA): 0.55 µM

A few entries again:
Cc1onc(-c2ccc(Cl)o2)c1-c1ccccc1  IC50 (COX-1): 1.9 µM
CC1=CCC23OC2(C)CCC2C(CN(C)C)C(=O)OC2C13.Cl (stereo not drawn)  tumour growth inhibition (CA-755 breast adenocarcinoma model; ip and intratumoural, dose not given): 86 to 90%
N/N=C1\CCCc2nc3n[nH]c(O)c3cc21  IC50 (c-Met kinase; inhibitor): 0.00039 µM
CCc1ccc(CCNC(=O)c2c(O)c(O)cc3c(O)c(-c4c(C)cc5c(C(=O)NCCc6ccc(CC)cc6)c(O)c(O)cc5c4O)c(C)cc23)cc1  IC50 (Bcl-2 (human); binding, fluorescence polarization; with: fluorescent BH3 Bid peptide): ~1 µM
Cc1cc(CN2CCN(c3c(Br)cnc4[nH]c(-c5ccc(N6CCN(C)CC6)cc5)nc34)CC2)no1  IC50 (Aurora C kinase; inhibitor): 0.019 µM
C/C=C/C#CC#C[C@@H](O)[C@@H](/C=C/CCCO)O[C@@H]1O[C@H](CO)[C@@H](O)[C@H](O)[C@H]1O  IC50 (P2Y14 receptor; antagonist): 5.8 µM
